Results collected from several papers.
Compare with care: the assays were run in different laboratories. ± marks the error that the study gave.

[Cl-].[Cl-].[Ru+2].c1ccc(-c2ccccn2)nc1.c1ccc(-c2ccccn2)nc1.c1ccc(-c2ccnc3c2ccc2c(-c4ccccc4)ccnc23)cc1 — relative log P (C18 HPLC retention time; water; 100 µM; relative to: standards of known log P): 1.64
CCNCC#CCNc1ccnc2cc(Cl)ccc12 — relative UV abundance (measured: compound as metabolite; mouse hepatocytes; 10 µM DAQ, 30 min; relative to: parent at time zero): 58.6%
CCCNC(=O)[C@H]1O[C@@H]1C(=O)N[C@H](C(=O)N1CCC[C@H]1C(=O)OCC1=C2C(C)=CC(C)=[N+]2[B-](CC)(CC)n2c(C)cc(C)c21)[C@@H](C)CC — relative singlet oxygen generation (DPBF degradation; isopropyl alcohol; irradiation above 500 nm; relative to: methylene blue): 6.3 ± 3.8%
[Cl-].[Cl-].[Ru+2].c1ccc2nc(-c3ccc4ccccc4n3)ccc2c1.c1ccc2nc(-c3ccc4ccccc4n3)ccc2c1.c1cnc2c(c1)ccc1cccnc12 — relative log P (C18 HPLC retention time; water; 100 µM; relative to: standards of known log P): 1.28
CC[C@H](C)[C@@H](C(=O)N[C@@H](CC(C)C)C(=O)N[C@@H](CO)C(=O)N[C@@H](CO)C(=O)N[C@H](C(=O)N[C@@H](CCC(=O)O)C(=O)N[C@H](C(=O)NCC(=O)N[C@@H](CO)C(=O)N[C@@H](CC(N)=O)C(=O)N[C@H](C(=O)N1C[C@H](O)C[C@H]1C(N)=O)[C@@H](C)O)C(C)C)[C@@H](C)O)N(C)C(=O)[C@H](C)NC(=O)CN(C)C(=O)[C@H](Cc1ccccc1)NC(=O)[C@H](CO)NC(=O)[C@H](CO)NC(=O)[C@H](CCCNC(=N)N)NC(=O)[C@H](CCC(N)=O)NC(=O)[C@H](CC(C)C)NC(=O)[C@H](Cc1ccccc1)NC(=O)[C@H](CCCC(=O)O)NC(=O)[C@H](C)NC(=O)[C@H](CC(C)C)NC(=O)[C@H](CCCNC(=N)N)NC(=O)[C@H](CCC(=O)O)NC(=O)[C@@H](NC(=O)[C@H](C)NC(=O)[C@@H]1CCCCNC(=O)C[C@H](NC(=O)[C@H](CCCNC(=N)N)NC(=O)CC[C@H](NC(=O)CCCCCCCCCCCCCCCCCCC(=O)O)C(=O)O)C(=O)NCC(=O)N[C@@H]([C@@H](C)O)C(=O)N[C@@H](C)C(=O)N[C@@H]([C@@H](C)O)C(=O)N1)[C@@H](C)O — relative degradation rate (RP-UPLC; formulation, phosphate buffer, phenol, propylene glycol; 4 weeks, pH 7.4, 40 °C; relative to: semaglutide): 1.8
COc1ccc2nc(-c3ccc(N(C)C)cc3)sc2c1 — relative brightness (PBS; free dye; relative to: thioflavin T): 1.55
C=CC(=O)Nc1cc(Nc2nccc(-c3cn(C4CC4)c4ccccc34)n2)c(OC)cc1N(C)CCNC — relative error (bench-top stability; rat plasma; 80 ng/mL, 3 h, room temperature; relative to: nominal concentration): -1%
C[C@@H](C(=O)O)c1ccc(-c2ccccc2)c(F)c1 — relative change of HPLC peak area (HPLC; solution; concentration not given, 12 h, room temperature): 1.3%
CC(=O)OCC1=C2C(C)=CC(C)=[N+]2[B-](C)(C)n2c(C)cc(C)c21 — relative singlet oxygen generation (DPBF degradation; isopropyl alcohol; irradiation above 500 nm; relative to: methylene blue): 69 ± 18%
[Cl-].[Cl-].[Ru+2].c1ccc(-c2ccccn2)nc1.c1ccc(-c2ccccn2)nc1.c1ccc(-c2ccccn2)nc1 — relative log P (C18 HPLC retention time; water; 100 µM; relative to: standards of known log P): 1.11
